Published values pooled from the literature.
Every numbered part comes from another study and shows a few of its results, in no order.

Set 1 — technique: protein binding microarray; form: double-stranded DNA, one strand shown; sample: in vitro; concentration: not given; baseline: not given; direction: higher = stronger binding; measurement: E-score
Target: Histone acetyltransferase KAT6A, winged helix 1, GST fusion (KAT6A, Homo sapiens, UniProt Q92794, residues 1-85)
Notes: 8-mer, flanks averaged, mean of 2 arrays, mostly near background
Residues (chain): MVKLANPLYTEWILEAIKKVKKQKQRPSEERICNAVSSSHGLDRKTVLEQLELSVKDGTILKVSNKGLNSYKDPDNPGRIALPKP
CACAAAAC: -0.103
GGACTGCC: 0.00464
CAGTTCGC: 0.0133
GCCCGACC: 0.158
ATCCGTAA: 0.254
TCACGTAA: -0.0182

Set 2 — technique: protein-binding microarray; form: double-stranded DNA, one strand shown; sample: in vitro; concentration: 2200 nM top; notes: 60-bp whole probe; with: salmon DNA 0.4 mg/ml; baseline: random background probes; direction: higher = stronger binding; measurement: fitted relative affinity; constant ends, left off below: GCCTAGCAC … GTCTTGATTCGCTTGACGCTGCTG
Target: Interferon regulatory factor 7, full length, phosphomimetic (IRF7, Homo sapiens, UniProt Q92985, residues 1-503, S471D/S472D/S475D/S476D/S477D/S483D/S484D/S487D)
Residues (chain): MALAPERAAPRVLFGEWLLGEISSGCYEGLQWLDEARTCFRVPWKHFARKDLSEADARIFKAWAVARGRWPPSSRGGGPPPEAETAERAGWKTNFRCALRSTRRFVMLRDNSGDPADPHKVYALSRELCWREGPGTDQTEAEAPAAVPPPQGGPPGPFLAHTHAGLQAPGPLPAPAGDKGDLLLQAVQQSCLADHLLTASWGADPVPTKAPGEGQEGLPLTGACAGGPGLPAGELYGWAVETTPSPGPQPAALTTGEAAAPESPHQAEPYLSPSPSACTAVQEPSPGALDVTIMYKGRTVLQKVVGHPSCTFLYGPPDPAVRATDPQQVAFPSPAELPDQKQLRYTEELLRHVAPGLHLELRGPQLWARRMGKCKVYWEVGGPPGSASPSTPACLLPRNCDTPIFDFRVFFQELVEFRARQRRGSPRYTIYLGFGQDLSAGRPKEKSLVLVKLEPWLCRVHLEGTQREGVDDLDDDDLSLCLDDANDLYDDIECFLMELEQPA
GACGGACTGCTACTGGTGACGTGCTAG: -0.122 z-score
TTAGGTCTCTTTCTCCTTTAGTGCTAG: 1.44 z-score
GATGGTTTCGGGACTGGGGACGTGCTA: 3.61 z-score
CTGTTTCCATCTCTCAAAAGGTGCTAG: 4.78 z-score
GACGGTATCGGGTATCCGGACGTGCTA: -0.0799 z-score
TCACTGTTCTTTTCAGTACTGTGCTAG: 1.97 z-score
TTAGGTCTCCATCTCCTTTAGTGCTAG: 1.31 z-score
TTAGGTAACGGGTATCGGTTAGTGCTA: -0.128 z-score
GACGGTTCCGGGTATCGGGACGTGCTA: 0.938 z-score
TTAGATTTCGGGACTGGAATAGTGCTA: 0.881 z-score

Set 3 — technique: RNA Bind-n-Seq; form: RNA; sample: in vitro; concentration: 200 nM; notes: whole 134-nt RNA, ends assumed; with: 150 mM KCl; baseline: input library; direction: higher = stronger binding; measurement: log2 enrichment
Target: Fragile X messenger ribonucleoprotein 1, C-terminal low-complexity region (Fmr1, Mus musculus, UniProt P35922)
Constant ends, left off below: GGGAGUUCUACAGUCCGACGAUC … UGGAAUUCUCGGGUGUCAAGG
GCAGGAAGUAAAAACAAAUGGAAAUGCUUCGGAUAGUGGGAGGGGUGGGGGUUGCUAAGGAAAGGGUGGGAUGGGAGUGGGUAAAGAGUU: -0.244
UCCUGUGCUACACAUCGUAUGUACCGAAUCGGGGUUUGGGGUUUGGGGUUUUUUUGGGGAAAGUAUUAUGUUACGCCGUUCGGAUCUGCA: 0.969
ACCAUGCAGGUGGGCAUCUUUGGGAAGUGGGGCAAGGGGGGGAUAGGGAGGGGGGUAACACUUUGGGAAGAGGUGGUCCCAGGUCGUUUC: 0.649
AGUCCUGUGCUACACAUCGUAUGUACCGAAUCGGGGUUUUUGGUUUUUGGUUUUUGGAAAGUAUUAUGUUACGCCGUUCGGAUCUGCACU: -0.684
CACAGACAACACGCACCCACACUGACACAGAGGGAAGGGGUUGGGAUGGGGACAGGGUGCACAGCAGGGCGGGGUAGGACCCCAGCCCCU: 1.38
UGGCCCUGGUGGCAUGCGGGGAGGAAGAGGUGGCCUCAUGGAUCGUGGUGGUCCCGGUGGAAUGUUCAGAGGUGGCCGUCGUGGAGACAG: -0.0956

Mixed results
PhoQ, residues 284 288 289 292 302 303 TTSMTC — fold induction (PhoP, residues 12 14 15 18 19 STWGI (Escherichia coli, UniProt P23836); Sort-seq, measured: YFP reporter; E. coli; PhoQ-PhoP variant library, with: 10 µM Mg2+; baseline: high Mg2+ state, higher = stronger signaling): 8.57

Some of these lines once more (set 3):
ACCAUGCAGGUGGGCAUCUUUGGGAAGUGGGGCAAGGGGGGGAUAGGGAGGGGGGUAACACUUUGGGAAGAGGUGGUCCCAGGUCGUUUC: 0.649
